Results from different studies.
Each line is one published result; not all experiments were run side by side. “And” joins repeats or separate records; there may be more than shown. Numbers after ± are the reported error.

C#Cc1cc(-c2cc(Nc3nc(N[C@@H](C)c4ccc(F)cn4)ncc3Cl)n[nH]2)ccc1C=O
inhibition (FYN isoform b (human); kinase activity; 200 nM): 81.3% and 81.8%

NCCOc1cc(C(=O)Nc2cc(OCCN3CCCC3)c3ccccc3n2)nc(C(=O)Nc2cc(OCCN3CCCC3)c3ccccc3n2)c1
ΔTm (c-kit1 G-quadruplex DNA; FRET melting; 1 µM, pH 7.4, with: 60 mM potassium): 31.2 ± 0.9 K

CCCCCCCC(=O)OC[C@H](COP(=O)(O)O[C@@H]1[C@H](O)[C@H](O)[C@@H](OP(=O)(O)O)[C@H](OP(=O)(O)O)[C@H]1O)OC(=O)CCCCCCC
maximal open probability (Kv7.2/Kv7.3(EEE) mutant channel; activator; model 4, K3 fixed): 0.516

CCc1oc2c([C@H](CO)N(CC)CC)cccc2c1C
activity (cannabinoid receptors, human; agonist, NanoBiT G-protein dissociation; concentration not given): no effect

COc1cc2c(c(OC)c1OC)-c1ccc(OC)c(=O)cc1[C@@H](NC(C)=O)CC2
relative interaction (human FXRα-RXRα; protein-protein interaction, antagonist, mammalian two-hybrid; COS-7 cells; concentration not given, PGC1α co-transfected, with: GW4064; baseline: GW4064 alone): 29.7%

O=C(NN=Cc1ccc(C[n+]2ccccc2)cc1)c1ccc2ccc3ccc(C(=O)NN=Cc4ccc(C[n+]5ccccc5)cc4)nc3c2n1.[Br-].[Br-]
ΔTm (hp2 hairpin duplex DNA; FRET melting; 1 µM, with: ds26 10 µM): 1.1 ± 0.2 °C

COc1cc2c3c(n(CCCN4CCOCC4)c(=O)c2cc1OC)-c1cc2c(cc1C3=O)OCO2
ΔTm (MYC G-quadruplex DNA; FRET melting; 2.0 µM, pH 7.0, with: K+ 10 mM): 11.7 ± 1 °C

Cc1c(N(C)C)ccc2cc(C(=O)NS(=O)(=O)c3ccccc3-c3ccccc3)oc12
IC50 (human estrogen receptor alpha; reporter gene; MCF7-MVLN): > 20000 nM

COc1cc2c3c(n(CCCN4CCCC4)c(=O)c2cc1OC)-c1nc2c(cc1C3=O)OCO2
ΔTm (MYC G-quadruplex DNA; FRET melting; 2.0 µM, pH 7.0, with: K+ 10 mM): 24.2 ± 1.6 °C

C[C@]12CC[C@@H]3c4ccc(O)cc4CC[C@H]3[C@@H]1CC[C@@H]2O
EC50 (estrogen receptor 1 ligand-binding domain, Xenopus laevis; reporter gene, agonist, GAL4 one-hybrid reporter; HepG2; charcoal-stripped FBS): 0.9 ± 0.1 nM

CCC(N)C(=O)O (racemic)
thermal shift (SAR11_1346; differential scanning fluorimetry; Candidatus Pelagibacter sp.; in-house screen): 5.66 °C

NCCCOc1cc(NC(=O)c2cc(Cl)cc(C(=O)Nc3cc(OCCCN)c4ccccc4n3)n2)nc2ccccc12
ΔTm (c-kit1 G-quadruplex DNA; FRET melting; 1 µM, pH 7.4, with: 60 mM potassium): 29.1 ± 0.7 K

COc1ccc(C(=O)Nc2cc(OC(F)(F)F)ccc2-n2cncn2)cc1OC
agonist effect (other mGlu receptor subtypes; agonist, GIRK thallium flux; 10 µM): no effect

CC(C)[C@H](N)C(=O)O
thermal shift (SAR11_1346; differential scanning fluorimetry; Candidatus Pelagibacter sp.; in-house screen): 4.73 °C and 4.93 °C

O=C(C#Cc1cn(Cc2ccccc2)c(=O)[nH]c1=O)NCc1ccccc1
remaining MMP-12 activity (MMP-12; inhibitor, colorimetric; 20 µM): 100 ± 5%

CCOc1ccc(C(C)(CC(=O)O)C(=O)O)cc1 (stereo not drawn)
inhibition (rat AA3; 20 µM): inhibited

C=C(CC(=O)O)C(=O)O
thermal shift (SAR11_1346; differential scanning fluorimetry; Candidatus Pelagibacter sp.; in-house screen): 3.53 °C

NCCOc1cc(NC(=O)c2cccc(C(=O)Nc3cc(OCCN)c4ccccc4n3)n2)nc2ccccc12
ΔTm (c-kit1 G-quadruplex DNA; FRET melting; 1 µM, pH 7.4, with: 60 mM potassium): 25.6 ± 0.7 K

Cc1ncsc1-c1ccc(CNC(=O)[C@@H]2C[C@@H](O)CN2C(=O)[C@@H](NC(=O)C2(C#N)CC2)C(C)(C)C)cc1
macrophage density (F4/80+ macrophages; immunostaining; Mus musculus, meningeal perivascular region; concentration not given): 12.8 cells/mm²

C[n+]1cccc2cc(C=NNC(=O)c3ccc4ccc5ccc(C(=O)NN=Cc6ccc7c(ccc[n+]7C)c6)nc5c4n3)ccc21.[I-].[I-]
ΔTm (hp2 hairpin duplex DNA; FRET melting; 1 µM, with: ds26 10 µM): 0.3 ± 0.1 °C

NCCCOc1cc(NC(=O)c2cc(OCCN)cc(C(=O)Nc3cc(OCCCN)c4ccccc4n3)n2)nc2ccccc12
ΔTm (c-kit1 G-quadruplex DNA; FRET melting; 1 µM, pH 7.4, with: 60 mM potassium): 22.2 ± 0.4 K

CC[C@@]1(O)C(=O)OCc2c1cc1n(c2=O)Cc2cc3ccccc3nc2-1
ΔTm (MYC G-quadruplex DNA; FRET melting; 2.0 µM, pH 7.0, with: K+ 10 mM): 0.3 ± 0.1 °C

O=C(O)CCCOc1cccc(CNC(=O)C#Cc2cn(Cc3ccc(C(=O)O)cc3)c(=O)[nH]c2=O)c1
remaining MMP-12 activity (MMP-12; inhibitor, FRET; 10 µM): 113 ± 4%

NCCOc1cc(NC(=O)c2cc(OCc3c[nH]nn3)cc(C(=O)Nc3cc(OCCN)c4ccccc4n3)n2)nc2ccccc12
ΔTm (c-kit1 G-quadruplex DNA; FRET melting; 1 µM, pH 7.4, with: 60 mM potassium): 9.9 ± 0.9 K

CC(C)c1noc2ncc(C(=O)c3ccccc3O)cc12
inhibition (rat Kv2.1; ion current, whole-cell patch-clamp; 10 µM): 3.02%

CC(=O)NCCCC[C@H](NC(=O)CNC(=O)[C@H](CCCNC(=N)N)NC(C)=O)C(=O)Nc1ccc2c(C)cc(=O)oc2c1
kcat (human Y225F/Y782F mutant enzyme; substrate, fluorogenic): 0.048 ± 0.004 s⁻¹

O=C(Nc1cc(OCCN2CCCC2)c2ccccc2n1)c1cc(OCCN2CCCC2)cc(C(=O)Nc2cc(OCCN3CCCC3)c3ccccc3n2)n1
ΔTm (c-kit1 G-quadruplex DNA; FRET melting; 1 µM, pH 7.4, with: 60 mM potassium): 24.5 ± 0.7 K

NS(=O)(=O)c1ccc(Nc2nc(-c3ccc(F)cc3)c3ccccc3n2)cc1
remaining binding (TRIM33 PHD-bromodomain; BROMOscan; 1000 nM; baseline: untreated control, lower = stronger binding): 87%

NCCCOc1cc(NC(=O)c2cc(OCc3c[nH]nn3)cc(C(=O)Nc3cc(OCCCN)c4ccccc4n3)n2)nc2ccccc12
ΔTm (c-kit1 G-quadruplex DNA; FRET melting; 1 µM, pH 7.4, with: 60 mM potassium): 9.8 ± 0.5 K

CC(=O)N[C@H](C(=O)N1C[C@H](O)C[C@H]1C(=O)NCc1ccc(-c2scnc2C)cc1)C(C)(C)SCCCCCCNC(=O)C[C@@H]1N=C(c2ccc(Cl)cc2)c2c(sc(C)c2C)-n2c(C)nnc21
relative protein abundance (DNA-PKcs (human); TMT proteomics; HeLa; 3 µM, 24 h; baseline: DMSO): 0.929

CC[C@H](C)[C@H](N)C(=O)O
thermal shift (SAR11_1346; differential scanning fluorimetry; Candidatus Pelagibacter sp.; in-house screen): 4.88 °C and 4.71 °C

Oc1ccccc1-c1n[nH]cc1-c1ccnc2ccccc12
log2 fold change (MCK1 (Candida albicans); kinase binding, MIB/MS competition; Candida albicans lysate; 10 µM; baseline: DMSO): 0.06

CCC[C@H](N)C(=O)O
thermal shift (SAR11_1346; differential scanning fluorimetry; Candidatus Pelagibacter sp.; in-house screen): 6.87 °C

CC(Nc1nc(N2CCCC2)nc2ccccc12)c1ccccc1 (stereo not drawn)
cells with nuclear reporter (importin α/β1; cMyc nuclear import, high content imaging; HeLa Kyoto reporter; 15.8 µM, 2 h): 92.5%

COc1cc2c3c(n(CCCNCCO)c(=O)c2cc1OC)-c1nc2c(cc1C3=O)OCO2
ΔTm (MYC G-quadruplex DNA; FRET melting; 2.0 µM, pH 7.0, with: K+ 10 mM): 26.7 ± 1.2 °C

O=C(Nc1cc(OCCN2CCCC2)c2ccccc2n1)c1cc(Cl)cc(C(=O)Nc2cc(OCCN3CCCC3)c3ccccc3n2)n1
ΔTm (c-kit1 G-quadruplex DNA; FRET melting; 1 µM, pH 7.4, with: 60 mM potassium): 22.2 ± 0.9 K

COc1cc2c3c(n(CCCN4CCC[C@H]4C(N)=O)c(=O)c2cc1OC)-c1nc2c(cc1C3=O)OCO2
ΔTm (MYC G-quadruplex DNA; FRET melting; 2.0 µM, pH 7.0, with: K+ 10 mM): 17.1 ± 1.6 °C

CCCCC1=NC2(CCCC2)C(=O)N1Cc1ccc(-c2ccccc2S(=O)(=O)Nc2noc(C)c2C)c(COCC)c1
Jmax (P-gp; substrate, SIVA model; Caco-2): 5.56 pmol/min/pmol

N[C@@H]1c2ccccc2OC12CCN(c1cnc3c(N4CCCc5ncccc54)n[nH]c3n1)CC2
pERK inhibition (ERK, human; patients with advanced solid tumours, monocytes, GM-CSF stimulated, blood; 20 mg, cycle 1 day 15, with: GM-CSF; baseline: baseline (cycle 1 day 1)): ~50%

N[C@@H](CS)C(=O)O
thermal shift (SAR11_1346; differential scanning fluorimetry; Candidatus Pelagibacter sp.; in-house screen): 3.13 °C

CC(C)C[C@H](NC(=O)[C@H](Cc1ccc(O)cc1)NC(=O)[C@H](CCC(N)=O)NC(=O)[C@@H](N)CC(=O)O)C(=O)N[C@@H](C)C(=O)N[C@H](C(=O)N1CCC[C@H]1C(=O)N[C@@H](CCC(N)=O)C(=O)N[C@@H](Cc1c[nH]cn1)C(=O)N1CCC[C@H]1C(=O)N[C@@H](Cc1ccc(O)cc1)C(=O)N[C@@H](CCC(N)=O)C(=O)N[C@@H](Cc1c[nH]c2ccccc12)C(=O)N[C@@H](C)C(=O)N[C@@H](CCCCN)C(=O)O)C(C)C
distance to active site (human calcineurin A; NMR mapping; concentration not given): ~20 Å

c1coc(-c2n[nH]cc2-c2ccnc3ccccc23)c1
log2 fold change (MCK1 (Candida albicans); kinase binding, MIB/MS competition; Candida albicans lysate; 10 µM; baseline: DMSO): -0.02

A few entries again:
NCCOc1cc(NC(=O)c2cccc(C(=O)Nc3cc(OCCN)c4ccccc4n3)n2)nc2ccccc12
ΔTm (c-kit1 G-quadruplex DNA; FRET melting; 1 µM, pH 7.4, with: 60 mM potassium): 25.6 ± 0.7 K

NCCOc1cc(NC(=O)c2cc(OCc3c[nH]nn3)cc(C(=O)Nc3cc(OCCN)c4ccccc4n3)n2)nc2ccccc12
ΔTm (c-kit1 G-quadruplex DNA; FRET melting; 1 µM, pH 7.4, with: 60 mM potassium): 9.9 ± 0.9 K

NS(=O)(=O)c1ccc(Nc2nc(-c3ccc(F)cc3)c3ccccc3n2)cc1
remaining binding (TRIM33 PHD-bromodomain; BROMOscan; 1000 nM; baseline: untreated control, lower = stronger binding): 87%

COc1cc2c3c(n(CCCN4CCOCC4)c(=O)c2cc1OC)-c1cc2c(cc1C3=O)OCO2
ΔTm (MYC G-quadruplex DNA; FRET melting; 2.0 µM, pH 7.0, with: K+ 10 mM): 11.7 ± 1 °C
